Assay results pooled from the literature.
Each numbered part is a random draw from the data of one study; scales do not carry over between parts. Changes are numbered by the printed parent chain.

Series 1
Target: ABI1, truncated, D143A, DHFR fusion (Arabidopsis thaliana)
Method: DHFR PCA, deep sequencing
Matrix: yeast
Notes: methotrexate growth selection, single substitutions
Together with: (+)-ABA 200 µM
Baseline: wild-type fitted maximum
Direction: higher = stronger binding
Starting sequence: PYL1, truncated, DHFR fusion (Arabidopsis thaliana); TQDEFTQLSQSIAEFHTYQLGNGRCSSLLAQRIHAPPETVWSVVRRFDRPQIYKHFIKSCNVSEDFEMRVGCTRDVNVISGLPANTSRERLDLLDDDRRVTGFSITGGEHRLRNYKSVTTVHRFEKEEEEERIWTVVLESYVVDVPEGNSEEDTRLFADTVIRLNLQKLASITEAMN
Substitution	relative binding score
M68V	98.9%
R98E	93.5%
R99M	107%
R98H	93.4%
A170E	70.6%
E129W	91.6%
R155V	90.8%
Q19N	101%
L166V	9.72%
K116P	-3.33%
E127D	112%
N149F	18.6%
K58E	95.2%

Series 2
Target: CCND2, cyclin fold, Cln2 fusion (human)
Method: yeast growth competition, sequencing
Matrix: yeast
Notes: weak parent motif
Baseline: not given
Direction: higher = stronger binding
Starting sequence: CDKN1B docking peptide (human); PSACRNLFGPVDH
Substitution	normalised enrichment score
PSARRNLFGPVDH [C4R]	0.468
PSACRNLFGPVDD [H13D]	-0.00303
PSACRNEFGPVDH [L7E]	0.00989
PSACRNKFGPVDH [L7K]	0.0211
PSACRNLFQPVDH [G9Q]	0.513
PSACRNLFGHVDH [P10H]	-0.205
PSACRPLFGPVDH [N6P]	-0.0874
PSACRNLFGPVDQ [H13Q]	0.267
PTACRNLFGPVDH [S2T]	0.244
PSACRNLFGPVDG [H13G]	0.13
PSACQNLFGPVDH [R5Q]	-0.0839
PSACRNLFGPVDP [H13P]	0.082

Series 3
Target: Interferon regulatory factor 7, full length, phosphomimetic (IRF7, Homo sapiens, UniProt Q92985, residues 1-503, S101K/S471D/S472D/S475D/S476D/S477D/S483D/S484D/S487D)
Method: protein-binding microarray
Form: double-stranded DNA, one strand shown
Matrix: in vitro
Concentration: 250 nM
Notes: 60-bp whole probe
Together with: salmon DNA 0.4 mg/ml
Baseline: random background probes
Direction: higher = stronger binding
Shared flanks, not repeated: GCCTAGCAC … GTCTTGATTCGCTTGACGCTGCTG
Construct (chain): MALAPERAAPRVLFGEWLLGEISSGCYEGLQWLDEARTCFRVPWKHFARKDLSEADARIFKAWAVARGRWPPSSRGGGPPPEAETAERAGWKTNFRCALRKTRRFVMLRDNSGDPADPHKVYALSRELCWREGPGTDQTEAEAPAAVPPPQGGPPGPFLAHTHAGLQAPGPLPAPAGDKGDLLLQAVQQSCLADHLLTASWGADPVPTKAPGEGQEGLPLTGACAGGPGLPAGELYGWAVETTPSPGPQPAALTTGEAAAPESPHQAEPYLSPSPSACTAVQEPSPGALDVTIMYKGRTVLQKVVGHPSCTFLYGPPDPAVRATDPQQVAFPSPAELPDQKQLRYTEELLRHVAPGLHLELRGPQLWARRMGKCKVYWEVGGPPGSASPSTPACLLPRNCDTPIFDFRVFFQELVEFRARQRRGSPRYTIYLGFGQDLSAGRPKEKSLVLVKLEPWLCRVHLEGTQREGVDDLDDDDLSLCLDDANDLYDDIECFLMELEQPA
Strand	log fluorescence [z-score]
GACGGTTTCGGTCTCCGGACGTGCTAG	8.95
GACGCTTTCGGTTTCGGGACGTGCTAG	7.12
TTCGGTTTCGGTTCCGGTTAGTGCTAG	13.1
GACGAACTGGGGACTGGAGAGGTGCTA	-0.636
GACGTTATCAGTCTCGAGACGTGCTAG	0.688
TTAAGACTGCTTCTCCTTTAGTGCTAG	0.269
TCATCTCCCATTATATTACTGTGCTAG	0.824
TTACAACTGAGTCTCGATTAGTGCTAG	1.27
TCAAATTTCCACTTTGAACTGTGCTAG	1.31
TTAGGTTTCGGCTATCGGTTAGTGCTA	3.48
TTAGGTTTTGACTATCGGTTAGTGCTA	0.223
TCAGAAATTTCTTTCTAACTGTGCTAG	0.138
GTTTGTATATATTTTAACCCGTGCTAG	0.402
TTAGGTTTCGACACTGGGATAGTGCTA	3.88
TTAGGACTGCTTCACCTTTAGTGCTAG	0.492
TAGCTTCCATTTTCTGAACGTGTGCTA	1.22
TTAGGTATCGGGTATGGGTTAGTGCTA	0.655
TCAAGGTTGTTTCTAATACTGTGCTAG	-0.138

Other studies, line by line
Molecule	target	test	system	conditions	scale	endpoint	value
PhoQ, residues 284 288 289 292 302 303 SQSLSM	PhoP, residues 12 14 15 18 19 LHSVQ (Escherichia coli, UniProt P23836)	Sort-seq, item: YFP reporter	E. coli	PhoQ-PhoP variant library, together with: 10 µM Mg2+	baseline: high Mg2+ state, higher = stronger signaling	fold induction	5.51

Some of these lines once more (series 3):
Strand	log fluorescence [z-score]
GACGTTATCAGTCTCGAGACGTGCTAG	0.688
TTAAGACTGCTTCTCCTTTAGTGCTAG	0.269
TCATCTCCCATTATATTACTGTGCTAG	0.824
